{"data": "Experimental data pooled from the literature", "note": "Parts stem from different laboratories: compare values within a part only. “And” joins repeats or separate records; there may be more than shown.", "sequence of UniProt Q5VT25 (whole entry, looked up)": "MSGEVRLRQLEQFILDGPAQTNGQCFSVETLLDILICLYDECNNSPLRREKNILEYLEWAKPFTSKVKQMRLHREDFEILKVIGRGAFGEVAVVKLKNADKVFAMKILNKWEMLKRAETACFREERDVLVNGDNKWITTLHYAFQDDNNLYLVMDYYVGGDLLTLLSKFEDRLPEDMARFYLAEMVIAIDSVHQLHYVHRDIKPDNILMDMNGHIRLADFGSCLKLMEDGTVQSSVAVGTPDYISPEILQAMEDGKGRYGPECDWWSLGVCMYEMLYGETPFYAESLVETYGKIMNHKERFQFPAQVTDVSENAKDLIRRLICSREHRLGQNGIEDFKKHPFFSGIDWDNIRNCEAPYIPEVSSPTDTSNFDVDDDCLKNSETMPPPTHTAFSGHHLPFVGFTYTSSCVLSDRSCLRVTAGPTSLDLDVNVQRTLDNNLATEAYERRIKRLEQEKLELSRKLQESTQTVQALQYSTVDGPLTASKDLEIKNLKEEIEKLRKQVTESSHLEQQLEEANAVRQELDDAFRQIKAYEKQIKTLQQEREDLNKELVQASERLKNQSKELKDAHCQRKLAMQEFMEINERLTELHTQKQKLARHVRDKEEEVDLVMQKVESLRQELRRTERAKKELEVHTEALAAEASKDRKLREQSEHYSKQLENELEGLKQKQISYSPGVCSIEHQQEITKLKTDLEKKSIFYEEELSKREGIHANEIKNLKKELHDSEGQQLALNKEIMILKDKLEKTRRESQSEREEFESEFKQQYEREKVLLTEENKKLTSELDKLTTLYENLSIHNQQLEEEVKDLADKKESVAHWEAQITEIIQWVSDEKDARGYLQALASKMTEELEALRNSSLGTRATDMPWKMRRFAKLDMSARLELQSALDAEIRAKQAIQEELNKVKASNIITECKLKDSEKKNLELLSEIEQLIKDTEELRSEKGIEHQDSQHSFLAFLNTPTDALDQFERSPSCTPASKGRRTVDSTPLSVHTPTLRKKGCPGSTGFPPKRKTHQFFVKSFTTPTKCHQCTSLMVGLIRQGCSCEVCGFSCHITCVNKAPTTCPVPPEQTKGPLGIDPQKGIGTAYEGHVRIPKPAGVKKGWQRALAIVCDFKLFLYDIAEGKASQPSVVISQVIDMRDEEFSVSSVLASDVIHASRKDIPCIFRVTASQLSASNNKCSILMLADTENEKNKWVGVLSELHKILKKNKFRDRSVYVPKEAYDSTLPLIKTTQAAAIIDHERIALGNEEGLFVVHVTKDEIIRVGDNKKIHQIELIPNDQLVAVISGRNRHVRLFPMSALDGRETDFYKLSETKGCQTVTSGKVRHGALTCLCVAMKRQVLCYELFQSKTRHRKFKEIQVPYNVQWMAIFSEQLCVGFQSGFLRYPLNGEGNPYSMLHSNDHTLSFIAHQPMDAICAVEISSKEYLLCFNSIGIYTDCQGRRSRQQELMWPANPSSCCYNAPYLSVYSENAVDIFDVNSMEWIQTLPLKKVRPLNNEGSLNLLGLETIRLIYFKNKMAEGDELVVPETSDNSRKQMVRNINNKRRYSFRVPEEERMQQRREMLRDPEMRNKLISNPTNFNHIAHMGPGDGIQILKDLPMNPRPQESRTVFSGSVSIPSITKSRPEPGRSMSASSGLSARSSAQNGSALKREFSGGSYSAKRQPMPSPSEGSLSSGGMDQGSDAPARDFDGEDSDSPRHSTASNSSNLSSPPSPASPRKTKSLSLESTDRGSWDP", "sequence of UniProt Q99755 (whole entry, looked up)": "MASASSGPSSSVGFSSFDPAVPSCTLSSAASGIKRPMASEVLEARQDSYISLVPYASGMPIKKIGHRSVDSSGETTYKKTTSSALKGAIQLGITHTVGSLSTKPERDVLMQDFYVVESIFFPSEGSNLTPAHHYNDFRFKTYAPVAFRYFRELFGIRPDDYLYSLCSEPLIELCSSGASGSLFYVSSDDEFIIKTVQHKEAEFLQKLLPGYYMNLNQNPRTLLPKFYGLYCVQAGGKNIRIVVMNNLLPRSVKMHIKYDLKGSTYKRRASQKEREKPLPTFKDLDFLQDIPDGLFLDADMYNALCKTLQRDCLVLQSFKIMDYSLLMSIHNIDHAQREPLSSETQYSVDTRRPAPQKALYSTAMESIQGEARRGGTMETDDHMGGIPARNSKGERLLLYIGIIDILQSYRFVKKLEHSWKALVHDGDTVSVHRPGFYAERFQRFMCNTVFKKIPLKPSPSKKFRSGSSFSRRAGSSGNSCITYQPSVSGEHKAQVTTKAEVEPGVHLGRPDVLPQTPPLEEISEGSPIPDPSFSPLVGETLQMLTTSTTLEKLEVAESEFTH", "sequence of UniProt P07333 (whole entry, looked up)": "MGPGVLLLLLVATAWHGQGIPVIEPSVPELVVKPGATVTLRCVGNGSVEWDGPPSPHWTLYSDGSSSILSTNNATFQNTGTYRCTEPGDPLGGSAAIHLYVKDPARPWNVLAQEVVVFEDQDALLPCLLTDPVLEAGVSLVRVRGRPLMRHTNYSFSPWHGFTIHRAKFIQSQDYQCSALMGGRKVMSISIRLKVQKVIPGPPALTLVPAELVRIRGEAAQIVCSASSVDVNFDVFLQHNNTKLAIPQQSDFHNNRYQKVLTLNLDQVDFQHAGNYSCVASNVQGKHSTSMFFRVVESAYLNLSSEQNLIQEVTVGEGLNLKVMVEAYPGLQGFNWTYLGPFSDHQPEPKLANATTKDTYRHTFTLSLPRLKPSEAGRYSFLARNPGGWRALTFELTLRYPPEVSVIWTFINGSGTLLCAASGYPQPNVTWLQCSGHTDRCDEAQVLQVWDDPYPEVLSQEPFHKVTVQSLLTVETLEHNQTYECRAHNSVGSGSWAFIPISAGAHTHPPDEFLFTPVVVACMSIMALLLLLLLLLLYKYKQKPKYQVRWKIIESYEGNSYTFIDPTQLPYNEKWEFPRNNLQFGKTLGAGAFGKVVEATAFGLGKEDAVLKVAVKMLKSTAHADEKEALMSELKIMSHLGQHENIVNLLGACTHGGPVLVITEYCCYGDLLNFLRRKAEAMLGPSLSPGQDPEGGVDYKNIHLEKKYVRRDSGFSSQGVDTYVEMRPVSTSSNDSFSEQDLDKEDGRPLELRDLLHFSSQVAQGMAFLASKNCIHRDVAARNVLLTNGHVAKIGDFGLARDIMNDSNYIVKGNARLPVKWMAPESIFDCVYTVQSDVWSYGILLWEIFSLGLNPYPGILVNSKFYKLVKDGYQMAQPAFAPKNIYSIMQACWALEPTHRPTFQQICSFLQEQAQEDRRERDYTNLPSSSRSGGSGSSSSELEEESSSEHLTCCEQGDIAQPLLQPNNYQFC", "sequence of UniProt Q8IVH8 (whole entry, looked up)": "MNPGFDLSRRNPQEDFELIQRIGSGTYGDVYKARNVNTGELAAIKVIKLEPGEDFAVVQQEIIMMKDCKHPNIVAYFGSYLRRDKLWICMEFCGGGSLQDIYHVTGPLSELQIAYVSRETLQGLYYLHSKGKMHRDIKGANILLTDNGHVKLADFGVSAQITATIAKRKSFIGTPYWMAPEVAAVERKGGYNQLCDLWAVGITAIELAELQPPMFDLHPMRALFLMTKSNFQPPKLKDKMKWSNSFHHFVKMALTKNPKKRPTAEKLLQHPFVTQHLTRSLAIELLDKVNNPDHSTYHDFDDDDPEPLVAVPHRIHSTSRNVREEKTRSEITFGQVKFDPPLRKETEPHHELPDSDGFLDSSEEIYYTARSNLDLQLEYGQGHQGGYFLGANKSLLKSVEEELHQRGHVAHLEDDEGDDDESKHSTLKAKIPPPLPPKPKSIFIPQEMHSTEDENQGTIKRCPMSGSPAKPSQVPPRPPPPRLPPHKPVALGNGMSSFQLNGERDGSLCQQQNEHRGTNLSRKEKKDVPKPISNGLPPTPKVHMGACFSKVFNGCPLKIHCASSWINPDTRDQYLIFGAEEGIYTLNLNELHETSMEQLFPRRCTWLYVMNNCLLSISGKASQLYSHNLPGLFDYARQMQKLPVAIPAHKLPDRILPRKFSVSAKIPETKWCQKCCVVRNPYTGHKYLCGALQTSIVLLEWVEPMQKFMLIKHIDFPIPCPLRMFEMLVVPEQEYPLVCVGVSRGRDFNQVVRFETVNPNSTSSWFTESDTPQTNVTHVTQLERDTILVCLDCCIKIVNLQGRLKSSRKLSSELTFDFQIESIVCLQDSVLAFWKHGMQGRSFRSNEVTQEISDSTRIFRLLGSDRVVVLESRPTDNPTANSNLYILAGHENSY"}
{"data": "Study 1", "SMILES": "C[C@@H]1[C@H](O)[C@@H](C)/C=C/C=C/C=C/C=C/C=C/C=C/C=C/[C@H](O[C@@H]2O[C@H](C)[C@@H](O)[C@H](N)[C@@H]2O)C[C@@H]2O[C@](O)(C[C@@H](O)C[C@@H](O)[C@H](O)CC[C@@H](O)C[C@@H](O)CC(=O)O[C@H]1C)C[C@H](O)[C@H]2C(=O)O"}
{"target or system": "THP-1", "test": "host cell growth", "setting": "0.4 µM", "inhibition": "-0.96% and -0.42% and -2.06% and 0.81% and -2.2%"}
{"target or system": "Leishmania donovani", "test": "parasite growth, imaging", "test system": "THP-1", "setting": "4 nM, intracellular, amastigote", "inhibition": "0%"}
{"target or system": "THP-1", "test": "host cell growth", "setting": "10 µM", "inhibition": "102%"}
{"data": "Study 2", "organism": "Sarcocystis neurona", "read-out": "parasite growth", "tested at": "10 µM", "setting": "secondary screen"}
{"SMILES": "CN[C@@H]1[C@H](O)[C@H](NC)[C@H]2O[C@@]3(O)C(=O)C[C@@H](C)O[C@H]3O[C@@H]2[C@H]1O.Cl.Cl", "inhibition": "-31.2%"}
{"SMILES": "CCc1nc(N)nc(N)c1-c1ccc(Cl)cc1", "inhibition": "65.7%"}
{"SMILES": "Cc1cn([C@H]2C[C@H](N=[N+]=[N-])[C@@H](CO)O2)c(=O)[nH]c1=O", "inhibition": "-27.2%"}
{"SMILES": "CC(C)NCC(O)COc1cccc2ccccc12.Cl (stereo not drawn)", "inhibition": "-26.5%"}
{"SMILES": "Cc1nccn1CC1CCc2c(c3ccccc3n2C)C1=O.Cl (stereo not drawn)", "inhibition": "-33.4%"}
{"data": "Study 3", "Compound": "O=C1NC(c2ccccn2)Sc2ccccc21 (stereo not drawn)", "read-out": "cell-free assay", "method": "competition with immobilised ligand", "tested at": "1 µM"}
{"target": "Tyrosine-protein kinase ABL1, non-phosphorylated (ABL1, Homo sapiens, UniProt P00519, T315I)", "remaining binding [%]": 100}
{"target": "Phosphatidylinositol 4-phosphate 5-kinase type-1 alpha (PIP5K1A, Homo sapiens, UniProt Q99755)", "remaining binding [%]": 100}
{"target": "Macrophage colony-stimulating factor 1 receptor (CSF1R, Homo sapiens, UniProt P07333)", "remaining binding [%]": 85}
{"target": "Serine/threonine-protein kinase MRCK alpha (CDC42BPA, Homo sapiens, UniProt Q5VT25)", "remaining binding [%]": 84}
{"target": "Epidermal growth factor receptor (EGFR, Homo sapiens, UniProt P00533, G719C)", "remaining binding [%]": 87}
{"target": "Mitogen-activated protein kinase kinase kinase kinase 3 (MAP4K3, Homo sapiens, UniProt Q8IVH8)", "remaining binding [%]": 100}
{"data": "Study 4", "target": "Protein kinase C iota type (PRKCI, Homo sapiens, UniProt P41743)", "read-out": "enzyme activity", "action": "inhibitor", "tested at": "0.5 µM", "baseline": "control", "Target sequence (P41743 1-596)": "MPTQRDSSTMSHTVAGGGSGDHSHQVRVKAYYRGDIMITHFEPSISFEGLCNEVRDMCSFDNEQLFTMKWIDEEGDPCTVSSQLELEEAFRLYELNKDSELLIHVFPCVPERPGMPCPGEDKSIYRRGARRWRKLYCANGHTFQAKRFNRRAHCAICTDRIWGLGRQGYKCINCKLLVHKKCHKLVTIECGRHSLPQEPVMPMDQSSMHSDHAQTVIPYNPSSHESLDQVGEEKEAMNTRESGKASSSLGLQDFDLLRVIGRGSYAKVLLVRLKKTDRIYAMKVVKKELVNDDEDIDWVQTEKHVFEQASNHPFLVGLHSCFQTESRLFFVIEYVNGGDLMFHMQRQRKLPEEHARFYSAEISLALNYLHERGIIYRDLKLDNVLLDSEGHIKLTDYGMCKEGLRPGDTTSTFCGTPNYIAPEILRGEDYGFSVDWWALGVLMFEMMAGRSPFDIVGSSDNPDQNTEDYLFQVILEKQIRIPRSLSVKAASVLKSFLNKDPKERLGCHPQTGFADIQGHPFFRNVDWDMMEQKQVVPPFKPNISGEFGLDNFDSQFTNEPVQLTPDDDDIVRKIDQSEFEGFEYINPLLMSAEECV"}
{"Compound": "CC(C)[C@H](CO)Nc1nc(Nc2cc(N)cc(Cl)c2)c2ncn(C(C)C)c2n1", "remaining activity [%]": 89.6}
{"Compound": "CCOC(=O)c1c(C)[nH]c(/C=C2\\C(=O)Nc3ccccc32)c1C", "remaining activity [%]": 92.9}
{"Compound": "Oc1ccc(-c2nc(-c3ccncc3)c(-c3ccc(F)cc3)[nH]2)cc1", "remaining activity [%]": 93.4}
{"Compound": "COc1ccc(OC)c2c(=S)c3ccccc3[nH]c12", "remaining activity [%]": 99.3}
{"Compound": "CN(C)c1ccc(C=C2C(=O)Nc3ccccc32)cc1", "remaining activity [%]": 101}
{"Compound": "N#CC(C#N)=C(N)/C(C#N)=C/c1ccc(O)cc1", "remaining activity [%]": 97.4}
{"Compound": "COc1ccc(C(=O)Nc2sc3c(c2C(N)=O)CCCC3)cc1OC", "remaining activity [%]": 91.8}
{"Compound": "COc1cc2nccc(Oc3ccc(NC(=S)NC(=O)c4ccccc4C)cc3)c2cc1OC", "remaining activity [%]": 99.9}
{"Compound": "O=C1NC(=O)C(c2cn(CCCn3ccnc3)c3ccccc23)=C1Nc1ccccc1", "remaining activity [%]": 90.7}
{"Compound": "Nc1ncnc2n[nH]c(Nc3ccc(F)cc3)c12", "remaining activity [%]": 91.3}
{"Compound": "O=C(Nc1cccc(Nc2cc(Nc3cccc(C(F)(F)F)c3)ncn2)c1)C1CC1", "remaining activity [%]": 98.1}
{"Compound": "OCC(O)CCON=C1C(c2c(O)[nH]c3ccccc23)=Nc2ccccc21 (stereo not drawn)", "remaining activity [%]": 100}
{"Compound": "Nc1[nH]nc2nc3ccccc3nc12", "remaining activity [%]": 103}
{"Compound": "COc1cc2ncnc(Nc3ccc(F)c(Cl)c3)c2cc1OCCCN1CCOCC1", "remaining activity [%]": 96.9}
{"Compound": "O=c1c2ccccc2[nH]c(=S)n1CCN1CCC(=C(c2ccc(F)cc2)c2ccc(F)cc2)CC1", "remaining activity [%]": 96.3}
{"Compound": "C#Cc1cccc(Nc2ncnc3cc(OCCOC)c(OCCOC)cc23)c1", "remaining activity [%]": 99}
{"data": "Study 5", "SMILES": "CC(=O)N[C@@H](Cc1c[nH]c2ccccc12)C(=O)N[C@@H](CCC(=O)C=[N+]=[N-])C(=O)OC(C)C"}
{"test system": "C57BL/6 CES1-/- mouse, EL4 tumour", "setting": "intravenous, 1 mg/kg DON equivalent, treatment day 7, 5 days per week", "tumour volume": "137 mm3 and 218 mm3 and 345 mm3 and 523 mm3 and 384 mm3 and 238 mm3 and 165 mm3 and 520 mm3"}
{"test system": "mice, MC-38 tumour rechallenge", "setting": "0.26 mg/kg, day 29 after injection", "tumour volume": "0 mm3"}
{"test system": "mouse, EL4 tumour", "setting": "subcutaneous, 1 mg/kg, day 8", "tumour volume": "355 mm3 and 272 mm3 and 279 mm3 and 392 mm3 and 176 mm3 and 131 mm3"}
{"note": "Some of these lines once more (study 2):"}
{"SMILES": "CN[C@@H]1[C@H](O)[C@H](NC)[C@H]2O[C@@]3(O)C(=O)C[C@@H](C)O[C@H]3O[C@@H]2[C@H]1O.Cl.Cl", "inhibition": "-31.2%"}
{"SMILES": "CCc1nc(N)nc(N)c1-c1ccc(Cl)cc1", "inhibition": "65.7%"}
{"SMILES": "Cc1cn([C@H]2C[C@H](N=[N+]=[N-])[C@@H](CO)O2)c(=O)[nH]c1=O", "inhibition": "-27.2%"}
{"SMILES": "CC(C)NCC(O)COc1cccc2ccccc12.Cl (stereo not drawn)", "inhibition": "-26.5%"}
